Experimental data from different studies.
Every numbered part comes from another study and shows a few of its results, in no order.

Set 1
Target: RING finger protein unkempt homolog, zinc fingers 1-6, SBP tag (UNK, Homo sapiens, UniProt Q9C0B0, residues 30-357)
Chain of UniProt Q9C0B0 (30-357, looked up): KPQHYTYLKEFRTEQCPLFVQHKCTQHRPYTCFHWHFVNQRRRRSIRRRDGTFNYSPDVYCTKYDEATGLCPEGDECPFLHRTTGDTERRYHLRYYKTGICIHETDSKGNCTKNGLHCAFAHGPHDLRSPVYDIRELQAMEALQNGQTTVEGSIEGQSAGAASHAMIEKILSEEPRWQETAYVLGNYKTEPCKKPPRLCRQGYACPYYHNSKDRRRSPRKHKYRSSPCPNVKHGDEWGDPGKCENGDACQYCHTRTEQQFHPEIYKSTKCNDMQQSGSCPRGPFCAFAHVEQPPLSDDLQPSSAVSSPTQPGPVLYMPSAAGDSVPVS
Method: RNA Bind-n-Seq
Molecule type: RNA
Medium: in vitro
Tested at: 100 nM
Setting: RNA with constant flanks, vertebrate orthologous sites, ends assumed
Reference: input RNA pool
Direction: higher = stronger binding
Shared flanks, not repeated: GGGAGUUCUACAGUCCGACGAUC … CAACAGAGGAUUGAGCAUCA
Oligonucleotide	bound/input enrichment [ratio]
CAGUUUGUAUGUACAUUAUUCACAUUCCUCUCUGUUGUGUUUGGGGGAAAAAAAGACAUUUUAGCCUUUUUUAAGGUUAUUGAUUUAAUUUCAUGUUAUUUGGUUGCAUGAAGUUGCCCU	0.425
GGCAGCCGGUGGGGGUUGUCCCCUGCCCUGGCCUUGCCUCCCCUCCCUGCCACCUGCCCCUUAUUAUUUUUUUUUUAAACCACCAUGUGAUUAAGGUCAGCGCUGCCUCUCCUGACCCAC	2.86
CAUGUCCUUGUUGCUGUGAUAUUUAAAAUAUCCACAGUACUCACUUUUUCCAAAUGAUUCUAGAAACUGCCUAGAAAUAUUUUUCUCUUACCUGUUAUUUAUCAAUUUUUCCCAGUAUUU	1.29
AGCAACCCAUGGAUUGAGGACUGGCUUUCCAAAUAUACCAAAUAGAUACGGAACUAACAGUAGAAUUGGACAACCAAGACCAUGAUGUGUUGCAAUUUAACUUAUUUUUAUGAGGAAUAU	0.817
GUGGUCCCUCCUGUGGCAGCAUCCUUGCAUACUGUCCUGGCCAGGACCAGGGACCUAUGUGUAGAACAUUUUUUAAAUCGCUGUGUCUGAGCAUCUCAGAGUAGGUGUGUCUCUUUGCAA	0.416
UGUCUGCCUCGUUCUGAAAUUUACACAGUAGACCGUUUGUCAUCCAUGCUGUCCCACAAAUAGUUUUUUGUUUACGAUUUACGACAGGUUUAUGUUACUUCUAUUUGAAUUUCUAUAUUU	1.02
CCUCAGAUCUAAGCCAACAGCAGUUCUAAAAUACUAUUUAUUUGUCUGUAAGUUUGUACAUAGUAAUAUCAACCUCAUAUUGUUGCAGUUUUUUUUUUCCAUGUUGUGUUUUGUUUUAAA	0.896
UGGGUUACUCCUAUUAUUAUCAAGUAGCUGGAAUUGUGAAGGUCGGAGUAGUUAGAUCUUUAGCUUUGAUUCCUUAUUUUUUUUUUGUAUUACUAUCCAUGUGUAUAAAUUAUUGAUCAU	1.63

Set 2
Target: Interferon regulatory factor 5, full length, phosphomimetic (IRF5, Homo sapiens, UniProt Q13568-2, residues 1-514, S451D/S453D/S456D/S462D)
Method: protein-binding microarray
Molecule type: double-stranded DNA, one strand shown
Medium: in vitro
Tested at: 940 nM top
Setting: 60-bp whole probe
Together with: salmon DNA 0.4 mg/ml
Reference: random background probes
Direction: higher = stronger binding
Shared flanks, not repeated: GCCTAGCAC … GTCTTGATTCGCTTGACGCTGCTG
Oligonucleotide	fitted relative affinity [z-score]
GACGGTTTCGGTTCCTGGACGTGCTAG	12.7
ATAGATTTCAGACTGGATTAGTGCTAG	-0.262
TCAGCTCCAGGTTCTCTGACTGTGCTA	-0.122
GACGATAGCAGTTTCGAGACGTGCTAG	3.26
TTAGATATCAGTTTCTATTAGTGCTAG	2.86
CTAATATTCATTTTATTCAAGTGCTAG	0.411
TTAGGTTCCAGTTTCGATTAGTGCTAG	8.34
GACGGACTGGGGTATCGGGCCGTGCTA	0.125
CAGCCTCTGCATTCCCTCAGGTGCTAG	0.201
TACAGGTTCTCTTTTATTTTGTGCTAG	1.14
GACGTTATCGGTCTCGGGACGTGCTAG	0.923
GACAACTGATATCAAAGGGAGTGCTAG	-0.246
GTGTTTCTCAGTTTATTTATGTGCTAG	2.34
GACGATATCGGACTGGGGACGTGCTAG	-0.141
TTAGTACTGGACTTTCGGTTAGTGCTA	2.36
GACGTTATCAGTCTCGAGACGTGCTAG	1.28
TTAGGTATGGGTCTCGGTTAGTGCTAG	1.71
TCAATTCTCTGCTTGGGACTGTGCTAG	0.886
GACGATTTCAGGACTGGAGACGTGCTA	-0.17

Set 3
Target: RNA binding protein fox-1 homolog 2, RRM domain, GST-SBP tag (RBFOX2, Homo sapiens, UniProt O43251-10, residues 100-194)
Method: RNA Bind-n-Seq
Molecule type: RNA
Medium: in vitro
Tested at: 365 nM
Setting: natural RNA segment, single round, ends assumed
Reference: no-protein control
Direction: higher = stronger binding
Shared flanks, not repeated: GGGAGUUCUACAGUCCGACGAUC … UGGAAUUCUCGGGUGCCAA
Residues (chain): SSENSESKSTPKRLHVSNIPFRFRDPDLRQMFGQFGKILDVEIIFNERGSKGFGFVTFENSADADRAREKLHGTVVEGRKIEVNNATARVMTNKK
Oligonucleotide	RBNS enrichment (R)
UGGACCAAAGGCAACCCCUGCAGUGUCUGUGAAAUGAUUUGAAGACCGUUCAGGCCACGCAAUAUGAGAAUGCAGUUUUUGUAGGAUUACAAAAAAAAAAAAAAGCCAUU	0.482
CUGUGUAUGGAAGAGACAGGUGACCGCUCCAGGUUGGGUGCUCACAGAACCCUUUUCCUGACUCUCAUGGAAGAUGGUGGAAGGAAAAUAGACUGUCUCAUCAACCCUCC	0.664
AUUCUUGACUUCUGUGCACCUGCAGGCUUAACAGCACAUAGAAGCUGCCAAGGCUUGGGGCUUCCACUCUGAAGCCACAGCCCGAGCUGUAUGUUGGCCCCUUUCAGCCA	0.383
GAACACUAGUAAUUCUGGUUUUUCUUUCUAACUGCUUUACUGUUUCAAGGGUAUUCUUUUAAAACUCUGAUUUCAAAGGAUCAGUUGAAUUUAUACUUUAGUUAUGGGUG	0.297
AUGCUGCAUUUCUUUGUUUUUAACACCUGGUUUUAUAGGUUCUCUUUCGUUUGUUAAGAAACUGGAUUCUUUUCUCCUAACCAGUGCUUAAUUUGUGUUUUUGGAUUUUC	1.27
UUUGCUACCGAAGUUGGCUCAAGAAUUUGUUUUUAGUGUUAUUUACCAAGAUUAGGACGUCAGUGGCUUAAAUUCUUUGAAUUCUUUUCAAGGACUGCAAGAUUAUUUGA	0.997
AUUCAAGAAAGCUUUAAAAGUUUUAUAUCCAGAUAUACAACCACAAUAAAGCAAAAUAACCUACUAUCAAAAUAGAAAUGUUGCUAUCUUUAUAAGUGCAAUUUAAUUUG	0.477
ACAUUCCAUGGAGAAUGCAUUCAUCAAACGGCCCGAAAGAAGCUACAUUUUGUUGGGAAGCUGGAUAAGUUUUAGGUGCAGGACCCCAAAUGUUCUGAGACCUUUGGGGC	0.788

Set 4
Target: Sal-like protein 4, full length isoform B (SALL4, Homo sapiens, UniProt Q9UJQ4-2, residues 1-616)
Method: universal PBM
Molecule type: double-stranded DNA, one strand shown
Medium: in vitro
Tested at: not given
Setting: 8-mer, flanks averaged, mean of replicates
Direction: higher = stronger binding
Oligonucleotide	E-score
CTGGGCGA	-0.24
TGCCTAAA	-0.00652
CACTGTCC	-0.0612
AAAAGACA	0.204
ACCAGAGA	0.0466
CGACGTAA	0.0552
GACTCAGA	-0.215
ATAGTCAC	0.174
GCCATCCC	-0.242
CTAGAAAG	0.0277
GAGTGGGC	-0.207
TCAGGACA	-0.0189
GCCGCCGA	-0.284
CTGCCCCA	-0.145
CGAGCAAC	-0.0985
CGCAACTC	-0.0351
ATGTTGAA	0.201
GCTGCAGC	-0.251
CTTGCGAA	0.0296
CATTTGCA	0.116
AGCTGCCA	-0.159
CATGTTAC	0.0978
CCATCACG	-0.0527
CGCCGATA	-0.116
CTTATATC	0.32

Some of these lines once more (set 2):
Oligonucleotide	fitted relative affinity [z-score]
GACGGTTTCGGTTCCTGGACGTGCTAG	12.7
GACGATTTCAGGACTGGAGACGTGCTA	-0.17
TCAGCTCCAGGTTCTCTGACTGTGCTA	-0.122
CTAATATTCATTTTATTCAAGTGCTAG	0.411
GACGATAGCAGTTTCGAGACGTGCTAG	3.26
